Measured values from different studies.
Each line is one published result; not all experiments were run side by side. Numbers after ± are the reported error.
UniProt O00311, sequence (whole entry, looked up): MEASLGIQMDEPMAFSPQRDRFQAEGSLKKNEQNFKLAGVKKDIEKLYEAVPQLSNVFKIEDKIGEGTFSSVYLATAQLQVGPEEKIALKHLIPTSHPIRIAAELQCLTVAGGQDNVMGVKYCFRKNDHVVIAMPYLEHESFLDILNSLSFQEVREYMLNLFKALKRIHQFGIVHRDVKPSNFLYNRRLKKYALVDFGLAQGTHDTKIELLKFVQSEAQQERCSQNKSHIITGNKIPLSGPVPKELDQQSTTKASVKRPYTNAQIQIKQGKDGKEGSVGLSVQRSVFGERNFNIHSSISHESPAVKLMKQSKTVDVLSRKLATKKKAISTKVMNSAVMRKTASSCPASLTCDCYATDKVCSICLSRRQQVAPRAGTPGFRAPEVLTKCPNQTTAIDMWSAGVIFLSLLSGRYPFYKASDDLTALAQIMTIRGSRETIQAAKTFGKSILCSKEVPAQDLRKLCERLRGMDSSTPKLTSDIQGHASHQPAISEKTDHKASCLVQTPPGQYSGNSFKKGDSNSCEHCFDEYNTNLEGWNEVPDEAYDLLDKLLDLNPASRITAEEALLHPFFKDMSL

SMILES	target or system	assay	test system	conditions	how to read	measurement	result
C[C@H]1CN(c2n[nH]c3nc(N[C@H]4CC[C@H](NS(=O)(=O)CCC(F)(F)F)CC4)ncc23)CCO1	CDC7 (Homo sapiens, UniProt O00311)	inhibitor, Kinobeads competition profiling	–	0.8 µM	reference: vehicle	relative abundance	1.19
[Cl-].[Cl-].[Pt+2].[Ru+2].c1ccc(-c2nccnc2-c2ccccn2)nc1.c1cnc2c(c1)ccc1cccnc12.c1cnc2c(c1)ccc1cccnc12	Danio rerio	–	embryos	90 µM, 48 h	–	survival rate	36.7 ± 3.2%
COc1cccc(-c2ccc(CN3CCCC(c4nc5ccc(C)cc5c(=O)[nH]4)C3)cc2)c1 (stereo not shown)	Vero-E6	CellTiter-Glo ATP	–	72 h, retest 8-point duplicates	reference: DMSO 0%, hyamine -100%, more negative, more toxic	maximum response	-11.7%
CCOC(=O)C1=C(CN2CCC[C@H]2C(=O)Nc2ccc(B(O)O)cc2)NC(c2nccs2)=N[C@H]1c1ccc(F)cc1Br	hepatitis B virus	–	HepDES19	–	reference: CC50 over EC50	selectivity index	32
OC(CCN1CC=C(c2ccc(F)cc2)CC1)c1ccc(F)c2ccccc12 (stereo not shown)	Salmonella typhimurium	SOS/umu test	TA1535/pSK1002	0.001 mg/mL, 4 h, with S9, lower range	–	survival	123%
CCOC(=O)C1=C(CN2CCC(C(=O)Nc3ccccc3B3OC(C)(C)C(C)(C)O3)C2)NC(c2nccs2)=NC1c1ccc(F)cc1Br (stereo not shown)	hepatitis B virus	–	HepDES19	–	reference: CC50 over EC50	selectivity index	> 16
COc1cccc(-c2n[nH]c(SCc3ccccn3)n2)c1OC	Salmonella typhimurium	Ames test, preincubation	TA100	2.0 mg/plate, without S9	–	revertant colonies per plate	117
Clc1ccccc1C1(c2ccnc(-c3ccccc3)n2)CCNCC1	Vero-E6	CellTiter-Glo ATP	–	concentration not given, 72 h, retest 8-point duplicates	reference: DMSO 0%, hyamine -100%, more negative, more toxic	cytotoxicity efficacy	-16.4%
Fc1ccc(C2=CCNCC2)cc1	Salmonella typhimurium	SOS/umu test	TA1535/pSK1002	0.002 mg/mL, 4 h, with S9, full range	–	survival	103%
CC(=O)N1CCC(C(=O)N2CCN3C(=O)c4cc(-c5ccccc5)ccc4NC(=O)C3C2)CC1 (stereo not shown)	Salmonella typhimurium	–	TA98	50 µg/plate, added: rat liver S9	reference: vehicle	fold increase in revertants	1.1
[Cl-].[Cl-].[Pt+2].[Ru+2].c1ccc(-c2nc3ccccc3nc2-c2ccccn2)nc1.c1cnc2c(c1)ccc1cccnc12.c1cnc2c(c1)ccc1cccnc12	Danio rerio	–	embryos	15 µM, 24 h	–	survival rate	90 ± 2.1%
Cc1cc(C(=O)NC(C)(C)COc2cccc3c2C(N)=NS(=O)(=O)N3)cc(C)n1	Escherichia coli	Ames test, confirmatory	WP2 uvrA	3333 µg/plate, added: rat liver S9	reference: solvent control	revertant ratio	1
CCOC(=O)C1=C(CN2CCN(Cc3ccc(B(O)O)cc3)CC2)NC(c2nccs2)=NC1c1ccc(F)cc1Br (stereo not shown)	hepatitis B virus	–	HepDES19	–	reference: CC50 over EC50	selectivity index	30
O=[N+]([O-])c1ccc(N2CCC(NCCC(O)c3ccc(F)c4ccccc34)CC2)c(C(F)(F)F)c1 (stereo not shown)	Salmonella typhimurium	SOS/umu test	TA1535/pSK1002	0.004 mg/mL, 4 h, without S9, full range	–	survival	37%
CNC(=O)c1c(N(C)N=O)ncn1C	Salmonella typhimurium	plate incorporation	TA1535, water	50 µg/plate, without S9	–	revertant colonies per plate	30 ± 5
CCOC(=O)C1=C(CN2CCC[C@@H]2C(=O)Nc2cccc(B(O)O)c2)NC(c2nccs2)=N[C@@H]1c1ccc(F)cc1Br	hepatitis B virus	–	HepDES19	–	reference: CC50 over EC50	selectivity index	16

For quick reference, copied from above:
SMILES	target or system	assay	test system	conditions	how to read	measurement	result
OC(CCN1CC=C(c2ccc(F)cc2)CC1)c1ccc(F)c2ccccc12 (stereo not shown)	Salmonella typhimurium	SOS/umu test	TA1535/pSK1002	0.001 mg/mL, 4 h, with S9, lower range	–	survival	123%
CCOC(=O)C1=C(CN2CCC(C(=O)Nc3ccccc3B3OC(C)(C)C(C)(C)O3)C2)NC(c2nccs2)=NC1c1ccc(F)cc1Br (stereo not shown)	hepatitis B virus	–	HepDES19	–	reference: CC50 over EC50	selectivity index	> 16
